Measurements of several laboratories.
Each line is one published result; not all experiments were run side by side. “And” joins repeats or separate records; there may be more than shown. ± gives the spread as reported.
UCHL1: Ubiquitin carboxyl-terminal hydrolase isozyme L1 (UCHL1, Homo sapiens, UniProt P09936)
UniProt P09936, sequence (whole entry, looked up): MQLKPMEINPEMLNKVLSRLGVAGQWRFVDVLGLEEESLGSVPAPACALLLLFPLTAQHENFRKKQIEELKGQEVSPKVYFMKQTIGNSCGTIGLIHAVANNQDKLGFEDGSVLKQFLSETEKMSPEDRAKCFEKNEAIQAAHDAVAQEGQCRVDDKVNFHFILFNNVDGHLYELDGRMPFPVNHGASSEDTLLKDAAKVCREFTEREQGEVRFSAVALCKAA

`COc1cc(C(=O)NS(=O)(=O)c2ccccc2C)ccc1Cc1cn(C)c2ccc(NC(=O)OC3CCCC3)cc12` has an IC50 of 5600 nM (HCT116 wild-type cells; native VRAC current, inhibitor, whole-cell patch clamp; pH 6.0, at +100 mV).
`N#CC(=Cc1cc(F)ccc1F)C(=O)Nc1ccc2c(c1)OCCO2` has a labelling of 26.3% (UCHL1; covalent, intact protein LC-MS; 12.5 µM).
With `COc1cccc2c1C(=O)c1c(O)c3c(c(O)c1C2=O)C[C@@](O)(C(=O)CO)C[C@@H]3O[C@H]1C[C@H](N)[C@H](O)[C@H](C)O1` the IC50 was 47.3 nM and 45.9 nM and 47 nM (CHP-212 parental; cell viability, SRB).
`Cc1nc(N(Cc2ccccc2)c2ccc3c(c2)/C(=C/c2ccccc2)C(=O)N3Cc2ccccc2)c2ccccc2n1` (mixture of isomers) gave an IC50 of 2100 ± 140 nM (Lewis lung carcinoma; cell viability, MTT).
`O=c1c(O)c(-c2cc(O)c(O)c(O)c2)oc2cc(O)cc(O)c12` gave an IC50 of over 200000 nM (SV-HUC-1; cell growth, CellTiter-Glo; 72 h).
For `C=CC(=O)N1C[C@@H](n2nc(C#Cc3c(F)cc4c(ncn4C4CC4)c3F)c(C(N)=O)c2NC)C[C@@H]1COC`, the IC50 was about 6 nM (CC-LP-1 (FGFR1, FGF20 overexpression); cell viability, MTT; 3 days).
`O=C(O)/C=C/c1ccccc1` has an IC50 of over 200000 nM (MDA-MB-231 breast cancer; cell viability, MTT; DMEM with 10% FBS; 48 h).
The IC50 of `C[C@H](Nc1ccc2c(c1)OCCn1cc(N3C(=O)OC[C@H]3C(F)F)nc1-2)C(N)=O` is reported as 4.7 nM (MDA-MB-453; western blot, item: phospho-PKB/Akt Ser473; 2 h).
With `CC1(C)COc2ccc(F)cc2CN2c3nc4c(cnn4cc3OC[C@H]2C(F)F)C(=O)N1` the IC50 was 5.48 nM (NCI-H2228 (EML4-ALK variant 3); cell viability).
The inhibition of `O=C(CCC(=O)Nc1ccc(Cl)cc1Cl)N/N=C/c1ccc([N+](=O)[O-])o1` is reported as 6.9% (Trypanosoma cruzi; reporter translation, Renilla luciferase mRNA translation; cell-free extract; 40 µM; baseline: DMSO).
`CN1CC(Oc2cnc(C#N)cc2-c2ccn3nc(NC(=O)C4CC4)cc3c2)C1` has an IC50 of about 5700 nM (human T cells; T cell activation, item: IL-2; with: anti-CD3/anti-CD28).
`C[C@H]1[C@H](OC(=O)CCC(=O)O)O[C@@H]2O[C@@]3(C)CC[C@H]4[C@H](C)CC[C@@H]1[C@@]24OO3` gave an IC50 of 29000 nM (primary AML blasts 4; cell viability; human; 96 h).
With `COc1cc(N2CCC(N3CCN(C)CC3)CC2)ccc1Nc1ncc(Cl)c(Nc2ccccc2P(C)(C)=O)n1` the IC50 was 12.5 nM (NCI-H2228 (EML4-ALK variant 3); cell viability).
With `COc1ncnc(C2CC2)c1-c1ncc2cnn(Cc3ccc(-c4nc(C(F)(F)F)cn4C(C)C)cc3)c2n1` the IC50 was 42600 nM (CHP-212; cell viability, SRB; mean of replicates).
`N#Cc1ccc(C[C@H](NC(=O)c2cc3cc(F)ccc3[nH]2)C(=O)N2CCc3ccccc32)cc1` gave an IC50 of 2600 ± 600 nM (human neutrophils; calcium mobilization, desensitization; with: standard agonist).
For `CCNc1nc2c(c(N3CC(=O)Nc4cc(OC)ccc43)n1)CCC2`, the IC50 was 0.76 nM (panel, incl lines, paclitaxel resistant; cell proliferation, MTS; 72 h, mean over panel).
For `O=C(c1c(F)ccc(NS(=O)(=O)N2CC[C@@H](F)C2)c1F)c1c[nH]c2ncc(-c3cnc(C4CC4)nc3)cc12`, the IC50 was over 30000 nM (primary keratinocytes; ERK phosphorylation, Western blot; 1 h).
With `N#Cc1ccc(C[C@@H](NC(=O)c2cc3cc([N+](=O)[O-])ccc3[nH]2)C(=O)N2CCc3ccccc32)cc1` the IC50 was over 50000 nM (human neutrophils; calcium mobilization, desensitization; with: standard agonist).
The IC50 of `C[C@@H]1CN(C(=O)c2ccc(NC(=O)c3cc(O[C@H](C)c4c(Cl)ccc(F)c4Cl)c(N)nn3)cc2)C[C@H](C)N1` is reported as 8.77 nM (NCI-H2228 (EML4-ALK variant 3); cell viability).
With `Cc1cccc(-c2nnc(N[C@@H](Cc3ccc(C#N)cc3)C(=O)N3CCc4ccccc43)o2)c1` the IC50 was over 50000 nM (human neutrophils; calcium mobilization, desensitization; with: standard agonist).
`CC#CC(=O)N1CCC[C@H]1c1nc(-c2ccc(C(=O)Nc3ccccn3)cc2)c2c(N)nccn12` has an IC50 of 5320 nM (human platelets, healthy donors; calcium mobilisation, inhibitor, Fura-2 fluorescence; with: CRP 10 µg/mL).
The IC50 of `C=CC(=O)c1cccnc1Nc1cc(C(F)(F)F)ccc1OC` is reported as 35900 nM (HEK293A LATS1/2 double knockout; TEAD reporter gene, GTIIC luciferase; 24 h).
`Cc1nn(-c2nc3ccc(Cl)c(Cl)c3[nH]2)c(O)c1C1OC(=O)c2ccccc21` (stereo not drawn) gave an IC50 of 2620 nM (RAW-ISG (mouse); IFN reporter gene, inhibitor, luciferase reporter; with: HT-DNA).
The IC50 of `CN(C)C(=O)c1cc2cnc(Nc3ccc(-c4ccc5c(=O)cc(N6CCOCC6)oc5c4)cc3)nc2n1C1CCCC1` is reported as 170 nM (BE(2)-C; cell viability, CellTiter-Glo; 72 h).
For `N#Cc1ccc(C[C@H](Nc2nnc(-c3cccc(Br)c3)s2)C(=O)N2CCc3ccccc32)cc1`, the IC50 was over 50000 nM (human neutrophils; calcium mobilization, desensitization; with: standard agonist).
The IC50 of `Cc1nc(NC(=O)N2CCC[C@H]2C(N)=O)sc1-c1ccnc(C(C)(C)C(F)(F)F)c1` is reported as 57.4 nM (MDA-MB-453; western blot, item: phospho-PKB/Akt Ser473; 2 h).
For `O=C(O)c1ccc(O)cc1`, the IC50 was over 200000 nM (T47D breast cancer; cell viability, MTT; DMEM with 10% FBS; 48 h).
`N#Cc1ccc(C[C@@H](NC(=O)c2cc3ccc(F)cc3[nH]2)C(=O)N2CCc3ccccc32)cc1` gave an IC50 of over 50000 nM (human neutrophils; calcium mobilization, desensitization; with: standard agonist).
For `Cc1c(C(=O)O)ccc2c3n(nc12)[C@@H]1[C@H](C3)N(CC2CC2)[C@@]2(C(=O)Nc3cc(Cl)ccc32)[C@H]1c1cccc(Cl)c1F`, the IC50 was 4.6 to 204 nM (highly sensitive cancer cell lines; cell viability, PRISM pooled screen; range, sensitivity above 0.5).
For `O=C(O[C@]12C[C@H]3C[C@H](C[C@H](C3)C1)C2)c1ccc(NCc2cc(O)ccc2O)cc1`, the EC50 was 5960 nM (Toxoplasma gondii; parasite growth; HFF, bradyzoite, glutamine-induced).
`CC(=O)c1n[nH]c2ccc(-c3cnc4ccc(N(C)C5CCOCC5)nn34)cc12` has an IC50 of 570 ± 80 nM (primary neutrophils; IL6 production; with: LPS).
With `O=C(CCl)NC1CCN(C(=O)C2COc3ccccc3O2)CC1` (stereo not drawn) the labelling was 9.18% (UCHL1; covalent, intact protein LC-MS; 12.5 µM).
With `Cc1cc(Nc2ncc(Cl)c(Nc3ccccc3S(=O)(=O)C(C)C)n2)c(OC(C)C)cc1C1CCNCC1` the IC50 was 750 ± 120 nM (Rh36 (embryonal rhabdomyosarcoma); cell growth; 3 days).
`N#Cc1ccc(C[C@H](Nc2c(Nc3ccc(Br)cc3)c(=O)c2=O)C(=O)N2CCc3ccccc32)cc1` has an IC50 of 1200 ± 300 nM (human neutrophils; calcium mobilization, desensitization; with: standard agonist).
For `CCc1c(-c2ccccc2)c(-c2ccccc2)nn1-c1ccccc1-c1cccc(OCC(=O)O)c1`, the IC50 was 892 nM (mouse bone marrow macrophages; osteoclast formation, TRAP staining; with: M-CSF and sRANKL).
`NS(=O)(=O)OC[C@@H]1C[C@@H](n2ccc3c(N[C@H]4CCc5ccccc54)ncnc32)C[C@@H]1O` gave an IC50 of 476 nM (CHP-212; cell viability, SRB; mean of replicates).
`C[C@H]1[C@@H](O)O[C@@H]2O[C@@]3(C)CC[C@H]4[C@H](C)CC[C@@H]1[C@@]24OO3` gave an IC50 of over 50000 nM (7702 normal human cells; cell growth, CCK-8; 48 h).
For `N#Cc1ccc(C[C@H](Nc2nnc(-c3ccc(Br)cc3)s2)C(=O)N2CCc3ccccc32)cc1`, the IC50 was over 50000 nM (human neutrophils; calcium mobilization, desensitization; with: standard agonist).
The IC50 of `COc1cc(-c2oc3cc(O)cc(O)c3c(=O)c2O)ccc1O` is reported as over 200000 nM (SV-HUC-1; cell growth, CellTiter-Glo; 72 h).
With `CC(C)(N)c1cc(C(=O)N[C@@H]2CCc3ccc(Oc4ccnc5c4CCC(=O)N5)cc3C2)cc(C(F)(F)F)c1` the IC50 was 4070 nM (primary keratinocytes; ERK phosphorylation, inhibitor, Western blot, item: p-ERK/total ERK; 1 h).
`[H]/N=C(/NCCCCC)N/N=C/c1c[nH]c2ccc(OC)cc12` has an EC50 of 19900 nM (Toxoplasma gondii; parasite growth; HFF, bradyzoite, glutamine-induced).
`N#Cc1ccc(C[C@H](Nc2nnc(-c3cccc(Br)c3)o2)C(=O)N2CCc3ccccc32)cc1` gave an IC50 of over 50000 nM (human neutrophils; calcium mobilization, desensitization; with: standard agonist).
With `NC(=O)NOCCCCCCCCCCCC[P+](c1ccccc1)(c1ccccc1)c1ccccc1` the IC50 was over 4000 nM (mouse myeloid-derived suppressor cells; suppressive neutrophil differentiation, flow cytometry).
With `COc1cc(N2CCC(N3CCN(C)CC3)CC2)ccc1Nc1ncc(Cl)c(Nc2ccccc2S(=O)(=O)C(C)C)n1` the IC50 was 360 ± 60 nM (Rh36 (embryonal rhabdomyosarcoma); cell growth; 3 days).
For `CCCCN1C[C@H](O)[C@@H](O)[C@@H](O)[C@H]1CO`, the IC50 was 15100 nM (sample H patient fibroblasts; GlcCer level lowering, LC-MS/MS, item: GlcCer d18:1/16:0; 216 h).
The IC50 of `Cc1cc(Nc2ncc(Cl)c(Nc3ccccc3S(=O)(=O)C(C)C)n2)c(OC(C)C)cc1C1CCNCC1` is reported as 70.9 nM (Ba/F3 EML4-ALK variant 1 S1206Y; cell viability).
For `C=CC(=O)N1CCC[C@@H](n2nc(-c3ccc(Oc4ccccc4)cc3)c3c(N)ncnc32)C1`, the IC50 was 1190 nM (washed human platelets, healthy donors; platelet aggregation, inhibitor, light transmission aggregometry; 5 min preincubation, with: CRP 10 µg/mL).
`C[C@H]1Oc2cc(cnc2N)-c2c(nn(C)c2C#N)CN(C)C(=O)c2ccc(F)cc21` gave an IC50 of under 1.02 nM (NCI-H2228 (EML4-ALK variant 3); cell viability).
For `CN1C(=O)CCC(N2Cc3c(C#CC4CCN(C(=O)[C@H]5CC[C@H](NC(=O)[C@@H]6NC7(CCCCC7)[C@@]7(C(=O)Nc8cc(Cl)ccc87)[C@H]6c6cccc(Cl)c6F)CC5)CC4)cccc3C2=O)C1=O` (stereo partly drawn), the IC50 was over 1000 nM (RS4;11/MIR2; cell growth, WST-8; 4 days).
For `CC1(C)CCC(CN2CCN(c3ccc(C(=O)NS(=O)(=O)c4ccc(NCC5CCOCC5)c([N+](=O)[O-])c4)c(Oc4cnc5[nH]ccc5c4)c3)CC2)=C(c2ccc(Cl)cc2)C1`, the IC50 was 82 nM (AML blasts, primary, RUNX1-mutated; blast expansion; 7 days, HUVEC co-culture).
For `Cc1cc(Cl)c(OCCOCCN2CCN(C)CC2)c(Br)c1.O=C(O)C(=O)O`, the inhibition was -12.2% (Trypanosoma cruzi; reporter translation, Renilla luciferase mRNA translation; cell-free extract; 40 µM; baseline: DMSO).
